Measured values collected from several papers.
Every numbered part comes from another study and shows a few of its results, in no order. Positions count from the first letter of the parent shown.
UniProt Q9H832, sequence (whole entry, looked up): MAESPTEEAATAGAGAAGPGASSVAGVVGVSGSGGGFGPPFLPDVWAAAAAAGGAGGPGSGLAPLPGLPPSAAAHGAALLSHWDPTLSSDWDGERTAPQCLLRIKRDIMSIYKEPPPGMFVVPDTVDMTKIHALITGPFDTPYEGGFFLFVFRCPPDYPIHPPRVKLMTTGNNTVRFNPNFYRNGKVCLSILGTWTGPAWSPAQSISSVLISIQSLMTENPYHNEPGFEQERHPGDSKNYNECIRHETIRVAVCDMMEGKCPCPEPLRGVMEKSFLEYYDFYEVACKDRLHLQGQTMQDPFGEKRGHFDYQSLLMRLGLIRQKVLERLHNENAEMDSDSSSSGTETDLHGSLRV
UniProt P62253, sequence (whole entry, looked up): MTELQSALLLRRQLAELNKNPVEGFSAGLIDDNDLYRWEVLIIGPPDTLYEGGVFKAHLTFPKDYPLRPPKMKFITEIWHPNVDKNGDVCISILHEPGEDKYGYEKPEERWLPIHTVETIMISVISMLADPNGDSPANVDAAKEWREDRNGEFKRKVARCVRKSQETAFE
UniProt Q712K3, sequence (whole entry, looked up): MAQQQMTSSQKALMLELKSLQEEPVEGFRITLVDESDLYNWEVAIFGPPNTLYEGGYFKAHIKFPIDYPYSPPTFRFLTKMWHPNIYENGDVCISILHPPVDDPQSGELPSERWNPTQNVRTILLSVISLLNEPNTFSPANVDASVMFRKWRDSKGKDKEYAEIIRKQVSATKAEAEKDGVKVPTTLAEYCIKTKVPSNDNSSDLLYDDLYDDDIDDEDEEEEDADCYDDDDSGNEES
UniProt O00762, sequence (whole entry, looked up): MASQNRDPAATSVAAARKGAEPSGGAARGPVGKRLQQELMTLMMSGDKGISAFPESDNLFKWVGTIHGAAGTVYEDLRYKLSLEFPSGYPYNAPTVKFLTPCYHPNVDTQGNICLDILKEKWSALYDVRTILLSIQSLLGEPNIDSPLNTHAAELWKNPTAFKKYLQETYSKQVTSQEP
UniProt P51668, sequence (whole entry, looked up): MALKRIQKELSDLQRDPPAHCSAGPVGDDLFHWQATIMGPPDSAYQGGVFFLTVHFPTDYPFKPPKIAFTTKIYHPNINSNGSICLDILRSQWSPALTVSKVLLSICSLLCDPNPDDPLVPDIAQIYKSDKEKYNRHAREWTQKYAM
UniProt Q969T4, sequence (whole entry, looked up): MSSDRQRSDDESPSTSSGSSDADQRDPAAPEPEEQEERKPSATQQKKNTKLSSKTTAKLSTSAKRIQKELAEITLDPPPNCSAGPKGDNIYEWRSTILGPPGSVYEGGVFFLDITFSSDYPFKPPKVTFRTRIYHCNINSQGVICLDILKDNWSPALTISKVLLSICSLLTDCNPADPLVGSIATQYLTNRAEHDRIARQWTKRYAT
UniProt Q9Y2X8, sequence (whole entry, looked up): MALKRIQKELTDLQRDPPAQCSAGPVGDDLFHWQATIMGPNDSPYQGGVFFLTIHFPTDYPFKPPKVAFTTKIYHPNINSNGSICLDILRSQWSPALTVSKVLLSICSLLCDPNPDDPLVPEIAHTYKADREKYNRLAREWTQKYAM

Set 1 — technique: protein-binding microarray; form: double-stranded DNA, one strand shown; sample: in vitro; tested at: 2540 nM top; notes: 60-bp whole probe; added: salmon DNA 0.4 mg/ml; reference: random background probes; direction: higher = stronger binding; all sequences stand within: GCCTAGCAC … GTCTTGATTCGCTTGACGCTGCTG
Target: Interferon regulatory factor 3, full length, phosphomimetic (IRF3, Homo sapiens, UniProt Q14653, residues 1-427, S386D/S396D/S398D/S402D/T404D/S405D)
Residues (chain): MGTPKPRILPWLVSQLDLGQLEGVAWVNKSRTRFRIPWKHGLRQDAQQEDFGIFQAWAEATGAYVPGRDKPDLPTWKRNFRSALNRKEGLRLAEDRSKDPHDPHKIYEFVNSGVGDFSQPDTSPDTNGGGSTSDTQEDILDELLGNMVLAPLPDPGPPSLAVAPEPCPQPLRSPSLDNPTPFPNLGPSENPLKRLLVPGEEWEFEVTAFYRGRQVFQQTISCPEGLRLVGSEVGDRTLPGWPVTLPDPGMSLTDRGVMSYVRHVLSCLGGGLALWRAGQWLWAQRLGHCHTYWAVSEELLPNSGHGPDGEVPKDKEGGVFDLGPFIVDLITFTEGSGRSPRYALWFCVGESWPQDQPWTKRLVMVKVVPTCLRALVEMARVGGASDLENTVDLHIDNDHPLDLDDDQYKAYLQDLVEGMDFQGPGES
Sequence	fitted relative affinity
CCCTGTGTTACTTTCTACTTGTGCTAG	1.64 z-score
TCACCCCTCTCTTTCCAACTGTGCTAG	1.6 z-score
GACTGTATCGGTCTCGGGACGTGCTAG	4.56 z-score
GACGGTCTCCTACTACTGACGTGCTAG	1.56 z-score
TTAGGTTTCCTACTGCTATAGTGCTAG	5.26 z-score
TCATTTCTCTGCTACCCTACTGTGCTA	2.34 z-score
CTGAATGTCCTCCTCTCTCTGTGCTAG	0.544 z-score
TTTTTTTTTTTTCTGATCCAGTGCTAG	2.07 z-score
TATCAGTAGGTAAGGAAAAGGTGCTAG	0.107 z-score
TAAGTTTCACTTTCCAAAGCGTGCTAG	9.47 z-score
GACCGACTGGGACTGGGGACGTGCTAG	-0.418 z-score
TTAGATATCGCGTTTCGATTAGTGCTA	1.52 z-score
GACGAACTGGGGATTCGAGACGTGCTA	-0.377 z-score
TCATAATTTACTTTGGTACTGTGCTAG	0.269 z-score
TTAGATATCTGGTATCGATTAGTGCTA	0.385 z-score
TCATTTTTTTTTTTCTGACTGTGCTAG	1.44 z-score
TTAGATATCATTCTCGATTAGTGCTAG	2.02 z-score
TTAGGACTGGGCACTGGGTTAGTGCTA	-1.26 z-score
TTAGGTATCGGGCATCGGTTAGTGCTA	-0.0887 z-score

Set 2 — target: BATF, bZIP domain (human); technique: DHFR protein complementation; sample: yeast; reference: wild-type JUN-FOS pair; direction: higher = stronger binding
Notes: single substitutions, most at no-binding floor
Starting sequence: JUN, bZIP domain (human); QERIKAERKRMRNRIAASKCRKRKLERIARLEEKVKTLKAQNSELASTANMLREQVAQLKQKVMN; partner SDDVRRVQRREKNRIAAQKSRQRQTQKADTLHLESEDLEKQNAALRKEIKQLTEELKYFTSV
Substitution	binding fitness
L45G	-1.27 natural log
E33C	-0.204 natural log
E44K	0.00332 natural log
R53I	-0.657 natural log
R53H	-0.377 natural log
L38A	-0.268 natural log
V35I	-0.012 natural log
L52V	-0.508 natural log
N42T	-0.639 natural log
R53L	-0.534 natural log
L31I	-0.0728 natural log
A29R	-0.078 natural log
I28F	-0.0912 natural log
A46F	-0.113 natural log
V35C	-0.0918 natural log
K39S	-0.171 natural log

Set 3 — Sequence: B1 (TRIM62 RING domain); technique: yeast two-hybrid; sample: yeast; notes: mostly zero background; reference: not given; direction: higher = stronger interaction
B1: TRIM62 RING domain (UniProt Q9BVG3); chain MACSLKDELLCSICLSIYQDPVSLGCEHYFCRRCITEHWVRQEAQGARDCPECRRTFAEPALAP
target	lacZ reporter activity
UBE2C UBC core domain (UniProt O00762)	0
UBE2G1 UBC core domain (UniProt P62253)	0
UBE2D4 UBC core domain (UniProt Q9Y2X8)	0
UBE2E3 UBC core domain (UniProt Q969T4)	0
UBE2R2 UBC core domain (UniProt Q712K3)	0
UBE2Z UBC core domain (UniProt Q9H832)	0
UBE2D1 UBC core domain (UniProt P51668)	0

Set 4 — target: CCNA2, cyclin fold, Cln2 fusion (human); technique: yeast growth competition, sequencing; sample: yeast; notes: weak parent motif; reference: not given; direction: higher = stronger binding
Starting sequence: DNAH7 docking peptide (human); HELFQRLDFDNDG
Substitution	normalised enrichment score
AELFQRLDFDNDG [H1A]	0.065
HELAQRLDFDNDG [F4A]	0.115
HEAFQRLDFDNDG [L3A]	0.322
HELFQALDFDNDG [R6A]	-0.204
HELFQRLDFDADG [N11A]	-0.157
HELFQRLAFDNDG [D8A]	-0.0826

A few entries again (set 1):
Sequence	fitted relative affinity
GACTGTATCGGTCTCGGGACGTGCTAG	4.56 z-score
TAAGTTTCACTTTCCAAAGCGTGCTAG	9.47 z-score
TCATTTCTCTGCTACCCTACTGTGCTA	2.34 z-score
TTAGATATCGCGTTTCGATTAGTGCTA	1.52 z-score
TTTTTTTTTTTTCTGATCCAGTGCTAG	2.07 z-score
CTGAATGTCCTCCTCTCTCTGTGCTAG	0.544 z-score
TCATTTTTTTTTTTCTGACTGTGCTAG	1.44 z-score
TATCAGTAGGTAAGGAAAAGGTGCTAG	0.107 z-score
